Assay results from different studies.
Protocols differ between the studies behind these lines. Numbers after ± are the reported error.

CC(=O)N[C@@H](Cc1ccccc1)C(=O)N[C@H]1CCCNC(=O)[C@H](CCCNC(=N)N)NC(=O)[C@H](Cc2c[nH]c3ccccc23)NC(=O)[C@@H](CC2CCCCC2)NC(=O)[C@@H]2CCCN2C1=O  elimination half-life (C57BL/6J mice, plasma; intravenous, 1 mg/kg): 5.99 min
O=C(O)c1cc(O)ccc1O  mean concentration (human, fasted baseline, cerebrospinal fluid): 35.3 nM
Cc1ccc(NC(=O)c2ccc(CN3CCN(C)CC3)cc2)cc1Nc1nccc(-c2cncc(-c3oncc3C)c2)n1  AUC(0-tau) (healthy volunteers, plasma; oral, 200.0 mg once daily, day 7, 7-day dosing, mean): 97200 ng·h/mL
CN1CC[C@@H](NC(=O)Nc2ccc(C#N)cc2)C[C@@H]1c1nc2ccccc2[nH]1  AUC(0-t), unbound (moderate hepatic impairment, plasma; oral, 100 mg single dose, fasted, arithmetic mean): 1020 ± 278 ng·h/mL
O=C(c1cccnc1-c1ccncc1)N1CCC(O)(Cc2ccccc2)CC1  AUCinf (healthy human, plasma; oral, 100 mg once daily, day 14, arithmetic mean): 509 ng·h/mL
O=c1[nH]c(=O)c(Cc2cccc(C(F)(F)F)c2)c([C@H]2CC[C@H](c3ccccc3)CC2)[nH]1  Cmax (human, plasma; oral, 900 mg once daily, day 1, fasted, geometric mean): 423 ng/mL
CCOc1ccc2c(c1)C(C)=CC(C)(C)N2  residue concentration (LC-MS/MS; laying hens, liver; oral, 50 mg/kg feed, 56 days, after glucuronidase): 96.2 ± 50.6 ng/g
O=C([O-])CN1CCN(CC(=O)[O-])CCN(CC(=O)O)CCN(CC(=O)[O-])CC1.[Gd+3]  relaxivity r1 (phosphate buffer; pH 7.4, 37 °C, 60 MHz, 1.5 T): 3.2 mM⁻¹ s⁻¹
CCc1oc2cc(Br)c(O)c(Br)c2c1C(=O)c1ccc(OC)cc1  microsomal CLint (metabolic stability; Sprague-Dawley rat, liver microsomes; 1 µM, pH 7.4): 269 µL/min/mg
O=c1cc2n(cc1O)CCN(Cc1ccc(Cl)cc1Cl)C2  concentration (rat, plasma; oral, 100 mg/kg, 4 h, unbound): 290 nM
CC(C)[C@H](NC(=O)[C@@H]1CCCN1C(=O)[C@H](CCCNC(=N)N)NC(=O)[C@H](CS)NC(=O)[C@H](Cc1c[nH]c2ccccc12)NC(=O)[C@H](CCCNC(=N)N)NC(=O)[C@@H](Cc1ccccc1)NC(=O)[C@H](Cc1c[nH]cn1)NC(=O)[C@H](CCC(=O)O)NC(=O)[C@H](CS)NC(=O)[C@H](CS)NC(=O)[C@H](CCCCN)NC(=O)[C@@H]1CC(=O)N[C@@H](CCCNC(=N)N)C(=O)N[C@@H](C(C)C)C(=O)N[C@@H](CC(=O)O)C(=O)N[C@H](Cc2ccc(O)cc2)C(=O)N1)C(N)=O [technetium-99m labelled]  uptake ratio (C57 mouse, female, B16/F1 melanoma; intravenous, 2 h, added: NDP-MSH 10 µg co-injected; reference: tumour over kidneys): 0.02
Cc1c(N(C)CS(=O)(=O)[O-])c(=O)n(-c2ccccc2)n1C.[Na+]  EC20 (cytochrome c release, ELISA; mouse liver mitochondria; 30 min; reference: maximal release by alamethicin): > 200 µM
Cn1c(-c2ccc(C(N)=O)cc2F)nnc1C(C)(C)Oc1c(F)cc(Cl)cc1F  mean Cmax (young non-Japanese humans, plasma; oral, 2 mg, day 1, single dose): 0.864 ng/mL
CONC(=N)c1ccc(-c2ccc(-c3ccc(C(=N)NOC)cc3)o2)cc1  intrinsic clearance (M1 formation by O-demethylation, substrate; individual human intestinal microsomes; high-Km component): 10 µL/min/mg
CN(C)CCCN1c2ccccc2CCc2ccccc21  EC20 (mitochondrial swelling; BALB/cByJ female mouse liver mitochondria; 30 min, added: succinate + rotenone; reference: CaCl2 maximal swelling): 274 µM
Cc1ccc(C(=O)c2cc(O)c(O)c([N+](=O)[O-])c2)cc1  intrinsic hepatic clearance (parallel tube model; human; from oral clearance): 4730 L/h
CC1=C(CC(=O)O)c2cc(F)ccc2/C1=C\c1ccc([S+](C)[O-])cc1 (stereo not drawn)  EC20 (cytochrome c release, ELISA; BALB/cByJ female mouse liver mitochondria; 30 min; reference: alamethicin maximal release): > 200 µM
COc1cccc2c1C(=O)c1c(O)c3c(c(O)c1C2=O)C[C@@](O)(C(=O)CO)C[C@@H]3O[C@H]1C[C@H](N)[C@H](O)[C@H](C)O1  Tmax (mouse, E0771 tumour-bearing, heart; intravenous, 92 µmol/kg): 30 min
COc1c(O)cc2oc3cc(O)cc(O)c3c(=O)c2c1C/C=C(\C)CCC=C(C)C  AUC(0-inf) (UHPLC, non-compartmental; mice, plasma; oral, 700 mg/kg, virgin coconut oil suspension): 561000 ± 78200 ng·h/mL
S=C(NCCCc1c[nH]cn1)NCCCN(Cc1ccc(Cl)c(Cl)c1)c1ccc(Br)cn1  concentration (male C57BL/6 mouse, plasma; intraperitoneal, 30 mg/kg, 2 h): 3430 ng/mL
CN[C@H]1CN(c2ccc3c(=O)c(C(=O)O)cn(-c4nccs4)c3n2)C[C@@H]1OC  Vss (human patients, plasma; intravenous, 18 to 90 mg/m^2 weekly, day 1, cycle 1, mean, noncompartmental): 120 L
N=C(N)NCCC[C@H](NC(=O)[C@H](Cc1c[nH]c2ccccc12)NC(=O)[C@H](CCC(N)=O)NC(=O)[C@H](Cc1c[nH]c2ccccc12)NC(=O)[C@H](CCCNC(=N)N)NC(=O)[C@H](Cc1c[nH]c2ccccc12)NC(=O)[C@H](CCC(N)=O)NC(=O)[C@H](Cc1c[nH]c2ccccc12)NC(=O)[C@@H](N)CCCNC(=N)N)C(N)=O  hemolysis (human erythrocytes O+; 200 µg/mL, 2 h, 37 °C): 13.2%
C=CC(=O)N1CCC(CNc2ncnc(N)c2-c2ccc(Oc3ccccc3)cc2)CC1  Vz/F (human, plasma; oral, 200 mg single dose, geometric mean): 703 L
CC(C)(C)c1cc(C(C)(C)C)c(NC(=O)c2c[nH]c3ccccc3c2=O)cc1O  AUC ratio (healthy subjects, plasma; oral, 50 mg ivacaftor once daily, added: tezacaftor 25 mg, itraconazole 200 mg; reference: with over without itraconazole): 15.6
CCCC[C@H](NC(C)=O)C(=O)N[C@H]1CCC(=O)NC[C@@H](C(=O)N[C@@H](Cc2c[nH]c3ccccc23)C(N)=O)NC(=O)[C@H](CCCNC(=N)N)NC(=O)[C@@H](Cc2ccccc2)NC(=O)[C@H](Cc2c[nH]cn2)NC1=O  half-life, geometric mean (healthy volunteers, both sexes, plasma; subcutaneous, 3.0 mg once daily, day 1): 570 min
colistin B methanesulfonate  absorption rate constant (one-compartment PK model; rat; i.p., 20 mg/kg colistin base activity): 1.2 ± 0.253 h⁻¹
CC(C)C(=O)Nc1ccc([N+](=O)[O-])c(C(F)(F)F)c1  EC20 (mitochondrial swelling; BALB/cByJ female mouse liver mitochondria; 30 min, added: succinate + rotenone; reference: CaCl2 maximal swelling): > 800 µM
Cc1cc(C)c2c(c1)[C@@H](N(Cc1cc(C(F)(F)F)cc(C(F)(F)F)c1)c1nnn(C)n1)CCCN2C[C@H]1CC[C@H](C(=O)O)CC1  AUC(0-tau) at steady state (human, dyslipidemic patients, plasma; oral, 100 mg daily, monotherapy, geometric mean): 5900 ng·h/mL
O=C(CCCCCCC(=O)Nc1ccccc1)NO  AUC(0-7 h) (patients, serum; oral, 1000 mg, cycle -1, alone): 37.5 µM·h
CNC(=O)c1cc(Oc2ccc(NC(=O)Nc3ccc(Cl)c(C(F)(F)F)c3)cc2)ccn1  EC20 (cytochrome c release, ELISA; BALB/cByJ female mouse liver mitochondria; 30 min; reference: alamethicin maximal release): > 400 µM
CSc1cc(Oc2ccnc3[nH]c(=O)cnc23)ccc1NC(=O)Nc1cc(C(C)(C)C)nn1-c1ccccc1  tumour concentration (female NSG and nude mice, tumour; oral, 20 mg/kg, 1 h after last dose, end of therapy): 6.5 to 10 µM
NC(=O)c1cnccn1  EC20 (mitochondrial swelling; BALB/cByJ female mouse liver mitochondria; 30 min, added: succinate + rotenone; reference: CaCl2 maximal swelling): > 400 µM
Cc1nc2cccc(OCC(C)(C)C(=O)NC(C)C)c2c(N)c1C(=O)O  Cmax (male Sprague-Dawley rat, plasma; dietary, 30 mg/kg/day, day 90): 46.8 ng/mL
CC(C)C[C@H](NC(=O)[C@H](CCc1ccccc1)NC(=O)CN1CCOCC1)C(=O)N[C@@H](Cc1ccccc1)C(=O)N[C@@H](CC(C)C)C(=O)[C@@]1(C)CO1  Vss (LC-MS; human, plasma; intravenous push, 15 mg/m^2): 942 L
O=S(=O)(O)Oc1cccc(O)c1O  median concentration (human, fasted baseline, cerebrospinal fluid): 3.8 nM
CO[C@H]1O[C@H](COS(=O)(=O)O)[C@@H](O[C@@H]2O[C@@H](C(=O)O)[C@@H](O[C@H]3O[C@H](COS(=O)(=O)O)[C@@H](O[C@@H]4O[C@H](C(=O)O)[C@@H](O[C@H]5O[C@H](COS(=O)(=O)O)[C@@H](O)[C@H](O)[C@H]5NS(=O)(=O)O)[C@H](O)[C@H]4O)[C@H](OS(=O)(=O)O)[C@H]3NS(=O)(=O)O)[C@H](O)[C@H]2OS(=O)(=O)O)[C@H](O)[C@H]1NS(=O)(=O)O  bioavailability (male Wistar rat, plasma; oral, 5 mg/kg): 1.41%
